Assay results pooled from the literature.
Method: steady-state kinetics
B1: GTPBP3 E315A (Homo sapiens, UniProt Q969Y2); chain TRRSSGAPAPGSGATIFALSSGQGRCGIAVIRTSGPASGHALRILTAPRDLPLARHASLRLLSDPRSGEPLDRALVLWFPGPQSFTGEDCVEFHVHGGPAVVSGVLQALGSVPGLRPAEAGEFTRRAFANGKLNLTEVEGLADLIHAETEAQRRQALRQLDGELGHLCRGWAETLTKALAHVEAYIDFGEDDNLEEGVLEQADIEVRALQVALGAHLRDARRGQRLRSGVHVVVTGPPNAGKSSLVNLLSRKPVSIVSPEPGTTRDVLETPVDLAGFPVLLSDTAGLREGVGPVAQEGVRRARERLEQADLILAMLDASDLASPSSCNFLATVVASVGAQSPSDSSQRLLLVLNKSDLLSPEGPGPGPDLPPHLLLSCLTGEGLDGLLEALRKELAAVCGDPSTDPPLLTRARHQHHLQGCLDALGHYKQSKDLALAAEALRVARGHLTRLTGGGGTEEILDIIFQDFCVGK
B2: enzyme (Rattus norvegicus, UniProt P06757); chain STAGKVIKCKAAVLWEPHKPFTIEDIEVAPPKAHEVRIKMVATGVCRSDDHAVSGSLFTPLPAVLGHEGAGIVESIGEGVTCVKPGDKVIPLFSPQCGKCRICKHPESNLCCQTKNLTQPKGALLDGTSRFSCRGKPIHHFISTSTFSQYTVVDDIAVAKIDAAAPLDKVCLIGCGFSTGYGSAVQVAKVTPGSTCAVFGLGGVGLSVVIGCKTAGAAKIIAVDINKDKFAKAKELGATDCINPQDYTKPIQEVLQEMTDGGVDFSFEVIGRLDTMTSALLSCHSACGVSVIVGVPPSAQSLSVNPMSLLLGRTWKGAIFGGFKSKDAVPKLVADFMAKKFPLEPLITHVLPFEKINEAFDLLRAGKSIRTVLTF
B3: axeA (Thermotoga maritima, UniProt Q9WXT2); chain MAFFDLPLEELKKYRPERYEEKDFDEFWEETLAESEKFPLDPVFERMESHLKTVEAYDVTFSGYRGQRIKGWLLVPKLEEEKLPCVVQYIGYNGGRGFPHDWLFWPSMGYICFVMDTRGQGSGWLKGDTPDYPEGPVDPQYPGFMTRGILDPRTYYYRRVFTDAVRAVEAAASFPQVDQERIVIAGGSQGGGIALAVSALSKKAKALLCDVPFLCHFRRAVQLVDTHPYAEITNFLKTHRDKEEIVFRTLSYFDGVNFAARAKIPALFSVGLMDNICPPSTVFAAYNYYAGPKEIRIYPYNNHEGGGSFQAVEQVKFLKKLFEKG
B4: Saccharopine reductase C154S (Saccharomyces cerevisiae, UniProt P38999); chain MGKNVLLLGSGFVAQPVIDTLAANDDINVTVACRTLANAQALAKPSGSKAISLDVTDDSALDKVLADNDVVISLIPYTFHPNVVKSAIRTKTDVVTSSYISPALRELEPEIVKAGITVMNEIGLDPGIDHLYAVKTIDEVHRAGGKLKSFLSYSGGLPAPEDSDNPLGYKFSWSSRGVLLALRNSAKYWKDGKIETVSSEDLMATAKPYFIYPGYAFVCYPNRDSTLFKDLYHIPEAETVIRGTLRYQGFPEFVKALVDMGMLKDDANEIFSKPIAWNEALKQYLGAKSTSKEDLIASIDSKATWKDDEDRERILSGFAWLGLFSDAKITPRGNALDTLCARLEELMQYEDNERDMVVLQHKFGIEWADGTTETRTSTLVDYGKVGGYSSMAATVGYPVAIATKFVLDGTIKGPGLLAPYSPEINDPIMKELKDKYGIYLKEKTVA
B5: msrA U16C (Clostridium oremlandii, UniProt A8MI53); chain MDTNQKLSIAVFALGCFWGPDAQFGSIKGVVSTRVGYAGGTTNNPSYYNLGDHSESIEIQYDANVITYGELLNIFWNLHNPVYETTNRQYMSRIFYLDDGQKSEALEMKRQIEAANGEKIYTEIVPLENFYLAEGYHQKYYLQNTTKLYQTLKAIYGGFGNLVRSTLAARMNGYIAGNLSIASLKEEMDLVELPEDQYEKVLSIVEEIK
B6: ileS (Streptococcus pneumoniae, UniProt Q04JB0); chain MKLKDTLNLGKTEFPMRAGLPTKEPVWQKEWEYAKLYQRRQELNQGKPHFTLHDGPPYANGNIHVGHAMNKISKDIIVRSKSMSGFYAPFIPGWDTHGLPIEQVLSKQGVKRKEMDLVEYLKLCREYALSQVDKQREDFKRLGVSGDWENPYVTLTPDYEAAQIRVFGEMANKGYIYRGAKPVYWSWSSESALAEAEIEYHDLVSTSLYYANKVKDGKGVLDTDTYIVVWTTTPFTITASRGLTVGADIDYVLVQPAGEARKFVVAAELLTSLSEKFGWADVQVLETYRGQELNHIVTEHPWDTAVEELVILGDHVTTDSGTGIVHTAPGFGEDDYNVGIANNLEVAVTVDERGIMMKNAGPEFEGQFYEKVVPTVIEKLGNLLLAQEEISHSYPFDWRTKKPIIWRAVPQWFASVSKFRQEILDEIEKVKFHSEWGKVRLYNMIRDRGDWVISRQRAWGVPLPIFYAEDGTAIMVAETIEHVAQLFEEHGSSIWWERDAKDLLPEGFTHPGSPNGEFKKETDIMDVWFDSGSSWNGVVVNRPELTYPADLYLEGSDQYRGWFNSSLITSVANHGVAPYKQILSQGFALDGKGEKMSKSLGNTIAPSDVEKQFGAEILRLWVTSVDSSNDVRISMDILSQVSETYRKIRNTLRFLIANTSDFNPAQDTVAYDELRSVDKYMTIRFNQLVKTIRDAYADFEFLTIYKALVNFINVDLSAFYLDFAKDVVYIEGAKSLERRQMQTVFYDILVKITKLLTPILPHTAEEIWSYLEFETEDFVQLSELPEVQTFANQEEILDTWAAFMDFRGQAQKALEEARNAKVIGKSLEAHLTVYPNEVVKTLLEAVNSNVAQLLIVSELTIAEGPAPEAALSFEDVAFTVERATGEVCDRCRRIDPTTAERSYQAVICDHCASIVEENFAEAVAEGFEEK
B7: protein (Actinidia deliciosa, UniProt Q32W37); chain QLPCAQALPIPTVTTTTSIEPPHVTRRSANYHPSIWGDHFLAYSSDAMEEEVINMEQQQRLHHLKQKVRKMLEAAAEQSSQMLNLVDKIQRLGVSYHFETEIETALRHIYKTCDYHFDDLHTAALSFRLLRQQGYPVSCDMFDKFKNSKGEFQESIISDVQGMLSLYEATCLRIHGEDILDEALAFTITQLRSALPNLSTPFKEQIIHALNQPIHKGLTRLNARSHILFFEQNDCHSKDLLNFAKLDFNLLQKLHQRELCEITRWWKDLNFAKTLPFARDRMVECYFWILGVYFEPQYLLARRMLTKVIAMISIIDDIYDVYGTLEELVLFTDAIERWEISALDQLPEYMKLCYQALLDVYSMIDEEMAKQGRSYCVDYAKSSMKILVRAYFEEAKWFHQGYVPTMEEYMQVALVTAGYKMLATSSFVGMGDLATKEAFDWVSNDPLIVQAASVIGRLKDDIVGHKFEQKRGHVASAVECYSKQHGTTEEEAIIELDKQVTHSWKDINAECLCPIKVPMPLLARVLNLARVLYVIYQDEDGYTHPGTKVENFVTSVLIDSMPIN
B8: enzyme (Oryza sativa, UniProt Q6Z955); chain MMLAYMDHAAAAAEPDAGAEPAVAAVDAAEFAAAMDFGGLVSARPAAVVRPASSDDVASAIRAAARTAHLTVAARGNGHSVAGQAMARGGLVLDMRALPRRMQLVVAPSGEKFADVPGGALWEEVLHWAVSKHGLAPASWTDYLRLTVGGTLSNGGVSGQSFRYGPQVSNVAQLEVVTGDGECHVCSRSADPDLFFAVLGGLGQFGVITRARIPLSPAPQTVRWTRVVYASFADYAADAEWLVTRPPHEAFDYVEGFAFVRSDDPVNGWPTVPIPDGAHFDASLLPANAGPVLYCLEVALYQRGGGGDGGGDDMDKRVGEMMRQLKYVRGLEFAAGVGYVDFLSRVNRVEDEARRNGSWAAPHPWLNLFISSRDIAAFDRAVLNGMLADGVDGPMLIYPMLKSKWDPATSVALPNGEIFYLVALLRFCRPYPGGGPPVDELVAQNNAIIDACRSNGYDYKIYFPSYHAQSDWSRHFGAKWSRFVDRKARYDPLAILAPGQNIFARTPSSVAAAAAVIV
B9: Msh2/Msh3 (Saccharomyces cerevisiae); chain 1 MSSTRPELKFSDVSEERNFYKKYTGLPKKPLKTIRLVDKGDYYTVIGSDAIFVADSVYHTQSVLKNCQLDPVTAKNFHEPTKYVTVSLQVLATLLKLCLLDLGYKVEIYDKGWKLIKSASPGNIEQVNELMNMNIDSSIIIASLKVQWNSQDGNCIIGVAFIDTTAYKVGMLDIVDNEVYSNLESFLIQLGVKECLVQDLTSNSNSNAEMQKVINVIDRCGCVVTLLKNSEFSEKDVELDLTKLLGDDLALSLPQKYSKLSMGACNALIGYLQLLSEQDQVGKYELVEHKLKEFMKLDASAIKALNLFPQGPQNPFGSNNLAVSGFTSAGNSGKVTSLFQLLNHCKTNAGVRLLNEWLKQPLTNIDEINKRHDLVDYLIDQIELRQMLTSEYLPMIPDIRRLTKKLNKRGNLEDVLKIYQFSKRIPEIVQVFTSFLEDDSPTEPVNELVRSVWLAPLSHHVEPLSKFEEMVETTVDLDAYEENNEFMIKVEFNEELGKIRSKLDTLRDEIHSIHLDSAEDLGFDPDKKLKLENHHLHGWCMRLTRNDAKELRKHKKYIELSTVKAGIFFSTKQLKSIANETNILQKEYDKQQSALVREIINITLTYTPVFEKLSLVLAHLDVIASFAHTSSYAPIPYIRPKLHPMDSERRTHLISSRHPVLEMQDDISFISNDVTLESGKGDFLIITGPNMGGKSTYIRQVGVISLMAQIGCFVPCEEAEIAIVDAILCRVGAGDSQLKGVSTFMVEILETASILKNASKNSLIIVDELGRGTSTYDGFGLAWAIAEHIASKIGCFALFATHFHELTELSEKLPNVKNMHVVAHIEKNLKEQKHDDEDITLLYKVEPGISDQSFGIHVAEVVQFPEKIVKMAKRKANELDDLKTNNEDLKKAKLSLQEVNEGNIRLKALLKEWIRKVKEEGLHDPSKITEEASQHKIQELLRAIANEPEKENDNYLKYIKALLL; chain 2 MAGQPTISRFFKKAVKSELTHKQEQEVAVGNGAGSESICLDTDEEDNLSSVASTTVTNDSFPLKGSVSSKNSKNSEKTSGTSTTFNDIDFAKKLDRIMKRRSDENVEAEDDEEEGEEDFVKKKARKSPTAKLTPLDKQVKDLKMHHRDKVLVIRVGYKYKCFAEDAVTVSRILHIKLVPGKLTIDESNPQDCNHRQFAYCSFPDVRLNVHLERLVHHNLKVAVVEQAETSAIKKHDPGASKSSVFERKISNVFTKATFGVNSTFVLRGKRILGDTNSIWALSRDVHQGKVAKYSLISVNLNNGEVVYDEFEEPNLADEKLQIRIKYLQPIEVLVNTDDLPLHVAKFFKDISCPLIHKQEYDLEDHVVQAIKVMNEKIQLSPSLIRLVSKLYSHMVEYNNEQVMLIPSIYSPFASKIHMLLDPNSLQSLDIFTHDGGKGSLFWLLDHTRTSFGLRMLREWILKPLVDVHQIEERLDAIECITSEINNSIFFESLNQMLNHTPDLLRTLNRIMYGTTSRKEVYFYLKQITSFVDHFKMHQSYLSEHFKSSDGRIGKQSPLLFRLFSELNELLSTTQLPHFLTMINVSAVMEKNSDKQVMDFFNLNNYDCSEGIIKIQRESESVRSQLKEELAEIRKYLKRPYLNFRDEVDYLIEVKNSQIKDLPDDWIKVNNTKMVSRFTTPRTQKLTQKLEYYKDLLIRESELQYKEFLNKITAEYTELRKITLNLAQYDCILSLAATSCNVNYVRPTFVNGQQAIIAKNARNPIIESLDVHYVPNDIMMSPENGKINIITGPNMGGKSSYIRQVALLTIMAQIGSFVPAEEIRLSIFENVLTRIGAHDDIINGDSTFKVEMLDILHILKNCNKRSLLLLDEVGRGTGTHDGIAISYALIKYFSELSDCPLILFTTHFPMLGEIKSPLIRNYHMDYVEEQKTGEDWMSVIFLYKLKKGLTYNSYGMNVAKLARLDKDIINRAFSISEELRKESINEDALKLFSSLKRILKSDNITATDKLAKLLSLDIH
Chain of UniProt Q99518 (whole entry, looked up): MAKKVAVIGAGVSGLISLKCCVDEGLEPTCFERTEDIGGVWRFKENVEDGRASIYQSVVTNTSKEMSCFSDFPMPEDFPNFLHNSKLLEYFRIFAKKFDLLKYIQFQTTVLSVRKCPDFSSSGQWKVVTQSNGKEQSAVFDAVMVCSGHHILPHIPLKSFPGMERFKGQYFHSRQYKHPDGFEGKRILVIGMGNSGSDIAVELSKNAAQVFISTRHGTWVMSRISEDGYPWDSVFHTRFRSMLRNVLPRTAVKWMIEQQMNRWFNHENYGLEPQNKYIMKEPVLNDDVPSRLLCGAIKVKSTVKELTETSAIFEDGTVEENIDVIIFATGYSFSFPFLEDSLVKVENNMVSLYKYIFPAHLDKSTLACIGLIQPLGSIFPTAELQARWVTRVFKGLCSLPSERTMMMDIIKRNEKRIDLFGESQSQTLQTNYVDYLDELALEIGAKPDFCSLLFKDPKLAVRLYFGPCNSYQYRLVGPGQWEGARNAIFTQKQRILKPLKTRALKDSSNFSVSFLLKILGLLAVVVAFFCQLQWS
Chain of UniProt P22303 (whole entry, looked up): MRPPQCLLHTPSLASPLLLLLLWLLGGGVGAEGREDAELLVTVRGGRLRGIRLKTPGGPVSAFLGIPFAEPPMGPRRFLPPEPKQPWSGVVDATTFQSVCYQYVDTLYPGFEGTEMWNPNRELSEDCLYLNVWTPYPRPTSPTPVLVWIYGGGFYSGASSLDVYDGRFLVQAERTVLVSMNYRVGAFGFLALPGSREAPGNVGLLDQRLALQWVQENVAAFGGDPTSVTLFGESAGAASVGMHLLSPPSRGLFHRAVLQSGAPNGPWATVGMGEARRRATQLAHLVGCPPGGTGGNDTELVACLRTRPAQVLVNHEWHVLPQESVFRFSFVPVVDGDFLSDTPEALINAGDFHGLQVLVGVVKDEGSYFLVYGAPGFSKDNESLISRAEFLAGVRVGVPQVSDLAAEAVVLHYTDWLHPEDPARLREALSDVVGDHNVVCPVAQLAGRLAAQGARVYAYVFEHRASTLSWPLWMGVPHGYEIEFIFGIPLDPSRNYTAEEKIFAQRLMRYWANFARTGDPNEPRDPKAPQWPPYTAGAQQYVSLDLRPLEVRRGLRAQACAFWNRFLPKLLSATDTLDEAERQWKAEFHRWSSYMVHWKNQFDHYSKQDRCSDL

Substance | substrate | pH | temperature | setting | added | Km [µM]
B1 (GTPBP3 E315A) | Nc1nc2c(ncn2[C@@H]2O[C@H](COP(=O)(O)OP(=O)(O)OP(=O)(O)O)[C@@H](O)[C@H]2O)c(=O)[nH]1 | pH 8 | 37 °C | KCl 300 mM | – | 11.9
B2 (enzyme) | CC(C)CCO | pH 7.3 | 37 °C | – | – | 42
B3 (axeA) | CC(=O)Oc1ccc([N+](=O)[O-])cc1 | pH 6.5 | 50 °C | temperature uncertain, apparent | – | 120
B4 (Saccharopine reductase C154S) | N[C@@H](CCC(=O)O)C(=O)O | pH 7 | 25 °C | – | NADPH, AASA | 67000
B5 (msrA U16C) | CN(C)c1ccc(N=Nc2ccc(S(=O)(=O)N[C@@H](CC[S@+](C)[O-])C(=O)O)cc2)cc1 | pH 7.5 | 37 °C | 50 mM NaCl, Km above tested range | 20 mM DTT reductant | 4000
B6 (ileS) | CC(C)C[C@H](N)C(=O)O | pH 7.2 | 37 °C | – | ATP 2 mM | 3200
enzyme (Homo sapiens, UniProt Q99518) | CN(C)CCCOc1nn(Cc2ccccc2)c2ccccc12 | – | 37 °C | not purified | – | 440
ACHE (Homo sapiens, UniProt P22303) | CC(=O)SCC[N+](C)(C)C | pH 8 | 22 °C | – | – | 110
B7 (protein) | CC(C)=CCC/C(C)=C/CC/C(C)=C/CO[P@@](=O)(O)OP(=O)(O)O | pH 7.5 | – | – | FPP 1-100 µM | 2.5
B8 (enzyme) | C/C(=C/CNc1ncnc2[nH]cnc12)CO | pH 9.5 | 40 °C | apparent | – | 28.3
B9 (Msh2/Msh3) | Nc1ncnc2c1ncn2[C@@H]1O[C@H](COP(=O)(O)OP(=O)(O)OP(=O)(O)O)[C@@H](O)[C@H]1O | pH 7.5 | 30 °C | no DNA | magnesium acetate 2 mM | 842
